Assay results from different studies.
Lines come from different studies, so protocols differ. Values joined by “and” are separate records of one study, mostly repeats; a detail may differ. ± gives the spread as reported.

For `CCCCCCCCCc1ccc(OCCOCCOCCOCCOCCOCCOCCOCCOCCO)cc1`, the EC50 was 2.53 µM (HEK293T ATF4-FLuc reporter; ATF4 reporter gene, activator, luciferase reporter).
`Cc1cc(C)n(-c2nc(-c3ccc(Cl)cc3)c3c(NC(=O)c4ccccc4)nnc-3[nH]2)n1` has a cell growth of 103% (RXF 393; SRB; 10 µM, NCI60 single-dose screen; relative to: untreated).
The viability of `CN(C)C/C=C/C(=O)Nc1cc2c(Nc3ccc(F)c(Cl)c3)ncnc2cc1O[C@H]1CCOC1` is reported as 0.5 ± 0.1% (SW-620/AD300 spheroids, P-gp overexpressing; CellTiter-Glo 3D; 6 µM, 12 days; relative to: untreated).
The EC50 of `CCCC(=O)O[C@]1(C(=O)CCl)[C@@H](C)C[C@H]2[C@@H]3CCC4=CC(=O)C=C[C@]4(C)[C@@]3(F)C(=O)C[C@@]21C` is reported as > 9.96 µM (HEK293T ATF4-FLuc reporter; ATF4 reporter gene, activator, luciferase reporter).
`CCc1c(-c2ccccc2)c(-c2ccccc2)nn1-c1ccccc1-c1cccc(OCC(=O)O)c1` gave a mRNA level of 3.12 and 3.18 and 3.2 (mouse osteoclasts; RT-qPCR, refers to: c-fos; 1 µM, unit not given, with: M-CSF plus RANKL; relative to: bone marrow macrophages).
`CCCCCCCCCCCCCCCCC(=O)O` gave an inhibition of -3.25% (THP-1; pyroptotic LDH release; 2 µM, 40 min, with: LPS then nigericin).
`COc1cnc2cccc(N3CCc4c(cc(Cn5ccnc5C)cc4-c4cn(C)nc4C(F)(F)F)C3=O)c2c1` has an EC50 of 0.0313 µM (NUGC-3; cell growth, inhibitor; 120 h).
`COc1cc(/C=C/C(=O)O)ccc1O` — result for “transepithelial electrical resistance”: 85 ± 4.8% (Caco-2/THP-1 co-culture; TEER; concentration not given, with: LPS 500 ng/mL; relative to: control).
The Emax of `C[C@@H]1CN(C(=O)c2ccc(NC(=O)c3cc(O[C@H](C)c4c(Cl)ccc(F)c4Cl)c(N)nn3)cc2)C[C@H](C)N1` is reported as 100% (Ba/F3 EML4-ALK variant 1 L1196Q; cell viability).
For `COc1cc(O)c2c(=O)c(O)c(-c3ccc(O)c(O)c3)oc2c1`, “transepithelial electrical resistance” read 94.3 ± 2.2% (Caco-2/THP-1 co-culture; TEER; concentration not given, with: LPS 250 ng/mL; relative to: control).
For `N=C(CCl)NCCC[C@H](NC(=O)c1ccccc1)C(N)=O`, H2O2 production read “no inhibition” (MRL/lpr mouse neutrophils; concentration not given, 1 h, with: PMA).
`Cc1ccc(CNC(=O)Cn2cc(CSc3nc4ccccc4[nH]3)nn2)cc1` gave a viability of 28.3% (Caco-2; MTT; 31.3 ppm).
`O=C(O)CCc1cc(C(=O)c2ccc(OC3CCCC3)cc2O)ccc1OCc1ccc2c(=O)[nH]oc2c1` gave an ED50 of 6.97 µM (UMSCC1 CSCs, ALDH-high, CD44-high; tumorsphere formation).
`O=c1c(O)c(-c2ccc(O)cc2)oc2cc(O)cc(O)c12` — result for “transepithelial electrical resistance”: 88.2 ± 1.4% (Caco-2/THP-1 co-culture; TEER; 0.25 µg/mL, with: LPS 250 ng/mL; relative to: control).
`O=C(O)CCc1ccc(S(=O)(=O)CCc2c(CCNS(=O)(=O)Cc3ccccc3C(F)(F)F)n(C(c3ccccc3)c3ccccc3)c3ccc(Cl)cc23)cc1` gave an EC50 of > 9.96 µM (HEK293T ATF4-FLuc reporter; ATF4 reporter gene, activator, luciferase reporter).
For `Cn1cc(Nc2nccc(-c3ccc4c(c3)CN(C3COC3)CC[C@H]4NC(=O)c3cn(C(C)(C)C)nn3)n2)cn1`, “pathway activation z-score” read 1.73 (mouse splenic B cells; refers to: IGF-1 signalling; 30 mg/kg, IgD-activated in vivo; relative to: vehicle, direction not given).
With `COc1cc(/C=C/C(=O)N2CCC=CC2=O)cc(OC)c1OC` the mRNA expression was 47.6 ± 6.7% (MDA-MB-468; qRT-PCR, refers to: CIAP; 30 µM, 6 h; relative to: time zero).
For `CC(C)[C@H](NC(=O)[C@@H](NC(=O)CCCc1cn(CC(O)CN2CCN(CC(=O)O)CCN(CC(=O)O)CCN(CC(=O)O)CC2)nn1)[C@@H](C)O)C(=O)N[C@@H](CCCNC(=N)N)C(=O)N[C@H](C(=O)N[C@@H](CO)C(=O)N[C@@H](C)C(=O)N[C@@H](CC(=O)O)C(=O)O)[C@@H](C)O` (stereo partly drawn), the terminal half-life was 2.69 ± 0.19 h (healthy male humans, plasma; intravenous bolus, 0.08 mmol/kg).
`CC(=O)Oc1c(C)c(C)c2c(c1C)CCC(C)(CCC[C@H](C)CCC[C@H](C)CCCC(C)C)O2` (stereo partly drawn) gave an inhibition of 4.01% (THP-1; pyroptotic LDH release; 2 µM, 40 min, with: LPS then nigericin).
For `O=C(O)CCc1ccc(O)cc1`, the kynurenine level was 102 ± 2.3 % change (Caco-2/THP-1 co-culture; 0.05 µg/mL, with: LPS 50 ng/mL).
`Nc1cccc2c1C(=O)N(C1CCC(=O)NC1=O)C2=O` (stereo not drawn) gave a viability of 110% (bone marrow CD138+ myeloma cells; XTT; 0.8 µM, mean of three patients).
`CCn1cc(-c2cc(Cn3ccnc3)cc3c2CCN([C@H](c2cc(OC)ccn2)C2CC2)C3=O)c(C(F)(F)F)n1` has an EC50 of 5.66 µM (NOMO-1; cell growth, inhibitor; 120 h).
`CC(C)(C)NC(=O)c1cncn1C1CCN(c2ccc(-c3nnc(C(F)(F)F)o3)cn2)CC1` gave a mRNA level of 0.496 (HDMEC; qPCR, refers to: GILZ; concentration not given, unit not given; relative to: DMSO).
For `OCCNCCO`, the inhibition was 6.38% (THP-1; pyroptotic LDH release; 2 µM, 40 min, with: LPS then nigericin).
`C=Cc1c2[n-]c(c1C)/C=c1\[n-]/c(c(C)c1C=C)=C\c1[n-]c(c(CCC(=O)O)c1C)/C=c1\[n-]c(c(C)c1CCC(=O)O)=C2.[Sn+4]` gave a fold change of 2.42 (SH-SY5Y; RNA-seq, refers to: ITGA6 mRNA; 5 µM, 5 h; relative to: untreated cells).
With `O=C1C=CC(=O)N1` the inhibition was 15.7% (THP-1; pyroptotic LDH release; 2 µM, 40 min, with: LPS then nigericin).
The cell growth of `Cc1n[nH]c2nc(-c3ccc(Cl)cc3)c3c(NC(=O)c4ccccc4)nnc-3n12` is reported as 105% (RXF 393; SRB; 10 µM, NCI60 single-dose screen; relative to: untreated).
The EC50 of `O=C(NC1CC1)c1cc2c(s1)-c1ccccc1N(C(=O)c1ccc(NC(=O)c3cccnc3N3CCC4(CC3)COC4)cc1)CC2` is reported as 7.05 µM (HEK293T ATF4-FLuc reporter; ATF4 reporter gene, activator, luciferase reporter).
Under “transepithelial electrical resistance”, `O=C(O)CCc1ccc(O)c(O)c1` is recorded as 79.4 ± 4.6% (Caco-2/THP-1 co-culture; TEER; concentration not given, with: LPS 200 ng/mL; relative to: control).
For `O=C1c2cccc(O)c2C(=O)c2c(O)cc(CO)cc21`, the viability was 147 ± 23.6% (HK-2 co-cultured with HepaRG; MTT; 266.67 µM, 24 h; relative to: untreated control).
`Cc1cnc2ccc3c(c2n1)N1CCC(O)N=C1N3C` (stereo not drawn): “relative colony forming efficiency” 91 ± 4% (BALB/c 3T3; 1 µM; relative to: solvent control).
For `CC(C)[C@H](NC(=O)[C@H](Cc1ccc(O)cc1)NC(=O)[C@H](Cc1ccc(O)cc1)NC(=O)[C@@H]1CCCN1C(=O)[C@H](CCC(=O)O)NC(=O)[C@H](CCC(=O)O)NC(=O)[C@H](Cc1c[nH]c2ccccc12)NC(=O)[C@@H]1CCCN1C(=O)[C@@H](NC(=O)[C@H](CCC(N)=O)NC(=O)c1ccc2c(c1)C(=O)OC21c2ccc(O)cc2Oc2cc(O)ccc21)C(C)C)C(=O)N[C@H](C(=O)N[C@@H](CCCCN)C(=O)N[C@@H](CCCCN)C(=O)N[C@@H](CO)C(=O)N[C@@H](CO)C(=O)NCC(=O)NCC(N)=O)C(C)C`, the plasma concentration was 254 ng/mL (human, plasma; intravenous infusion, 189.6 mg, 2 h).
For `Cc1cccc(-c2[nH]c(CNc3ccccc3F)nc2-c2ccc3ncnn3c2)n1`, the viability was 20% (bone marrow CD138+ myeloma cells; XTT; 0.8 µM, mean of three patients).
`CC(C)NCC(O)c1ccc(O)c(O)c1` (stereo not drawn) gave a sarcomere length of 1.8 µm (mouse ventricular cardiomyocytes; dose not given, 0.371 s).
`COc1cc(O)c(C(C)=O)c(OC)c1` has an inhibition of -2.96% (THP-1; pyroptotic LDH release; 2 µM, 40 min, with: LPS then nigericin).
`CCCCN1CCN(c2ccc3nc(-c4ccc5nc(-c6cc(OC)ccc6OC)[nH]c5c4)[nH]c3c2)CC1` gave a growth percent of 102% (SF-268; SRB; 10 µM, 48 h).
For `COc1cc(OC)c(C=C2C(O)=Nc3ccccc32)c(OC)c1`, the inhibition was -0.899% (THP-1; pyroptotic LDH release; 2 µM, 40 min, with: LPS then nigericin).
The GI50 of `O=C(/C=C/C=C/C=C/C1CCCCC1)NC1=C[C@@](O)(/C=C/C=C/C=C/C(=O)NC2=C(O)CCC2=O)[C@@H]2O[C@@H]2C1=O` is reported as 24.8 µM (NCI-H1944; cell growth, CellTiter-Glo; 78 h).
For `COc1cc(NC(C)CCCN)c2ncccc2c1` (stereo not drawn), “MyBP-C level change” read 14.4 SD (human iPSC cardiomyocytes; plate-normalised; concentration not given, hit retest; relative to: vehicle controls, SDs below control).
`Cc1ccc(C)c(Cn2cc(CCNc3ncnc4c3ncn4[C@@H]3O[C@H](C(=O)NC4CC4)[C@@H](O)[C@H]3O)c3cc(C)ccc32)c1` has an EC50 of 1.58 µM (HEK293T ATF4-FLuc reporter; ATF4 reporter gene, activator, luciferase reporter).
`CC(C)C[C@H](NC(=O)C[C@H](O)[C@H](CC(C)C)NC(=O)[C@H](Cc1c[nH]cn1)NC(=O)CNC(=O)[C@@H](NC(=O)[C@H](C)NC(=O)[C@H](Cc1c[nH]c2ccccc12)NC(=O)[C@H](CCC(N)=O)NC(=O)[C@@H](Cc1ccccc1)NC(=O)COCCOCCNC(=O)CCC(C(=O)O)N1CCN(CC(=O)O)CCN(CC(=O)O)CCN(CC(=O)O)CC1)C(C)C)C(N)=O` (stereo partly drawn) [lutetium-177 labelled] has a tissue uptake of 6 ± 1.3 %ID/g (BALB/c nu/nu mice, PC-3 xenograft tumour; 750 pmol, 1 h, with: PA 300 µg).
The viability of `COc1c(O)c(C)cc2c1C(=O)c1c(ccc(O)c1O)C2=O` is reported as 86.2 ± 4.65% (HK-2 co-cultured with HepaRG; MTT; 16.67 µM, 48 h; relative to: untreated control).
`Cn1c(Nc2nc3ccc(C(F)(F)F)cc3s2)nc2cc(C(=O)NCCOCCO)ccc21` has a fold change of 2.12 (SH-SY5Y; RNA-seq, refers to: EVA1A mRNA; 5 µM, 5 h; relative to: untreated cells).
`Cn1cc(-c2ccc(-c3cncc(Cl)c3N3CCC4(CCNC4=O)CC3)cc2)cn1` — result for “fold change in expression”: 2 (COLO 205; microarray, refers to: TPBG; concentration not given, 6 h, gene set 5T4; relative to: untreated cells).
`Cc1cc(Nc2ncc(Cl)c(Nc3ccccc3S(=O)(=O)C(C)C)n2)c(OC(C)C)cc1C1CCNCC1` — result for “log2 fold change”: -2.97 (CLB-BAR; phosphoproteomics LC-MS/MS, refers to: NEK9 phosphorylation; 200 nM, 60 min; relative to: untreated).

For quick reference, copied from above:
For `CCCCCCCCCc1ccc(OCCOCCOCCOCCOCCOCCOCCOCCOCCO)cc1`, the EC50 was 2.53 µM (HEK293T ATF4-FLuc reporter; ATF4 reporter gene, activator, luciferase reporter).
For `COc1cc(OC)c(C=C2C(O)=Nc3ccccc32)c(OC)c1`, the inhibition was -0.899% (THP-1; pyroptotic LDH release; 2 µM, 40 min, with: LPS then nigericin).
